Measurements gathered from unrelated publications.
Parts stem from different laboratories: compare values within a part only.
Sequence of UniProt P11802 (whole entry, looked up): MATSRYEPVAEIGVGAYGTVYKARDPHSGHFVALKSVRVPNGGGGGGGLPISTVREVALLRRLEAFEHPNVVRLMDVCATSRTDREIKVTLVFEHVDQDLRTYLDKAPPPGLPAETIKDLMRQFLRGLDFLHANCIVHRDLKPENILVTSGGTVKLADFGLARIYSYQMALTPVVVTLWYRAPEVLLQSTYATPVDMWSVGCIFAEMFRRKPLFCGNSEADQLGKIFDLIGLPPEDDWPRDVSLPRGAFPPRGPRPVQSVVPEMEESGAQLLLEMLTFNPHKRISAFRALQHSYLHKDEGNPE
Sequence of UniProt P42336 (whole entry, unmodified, looked up): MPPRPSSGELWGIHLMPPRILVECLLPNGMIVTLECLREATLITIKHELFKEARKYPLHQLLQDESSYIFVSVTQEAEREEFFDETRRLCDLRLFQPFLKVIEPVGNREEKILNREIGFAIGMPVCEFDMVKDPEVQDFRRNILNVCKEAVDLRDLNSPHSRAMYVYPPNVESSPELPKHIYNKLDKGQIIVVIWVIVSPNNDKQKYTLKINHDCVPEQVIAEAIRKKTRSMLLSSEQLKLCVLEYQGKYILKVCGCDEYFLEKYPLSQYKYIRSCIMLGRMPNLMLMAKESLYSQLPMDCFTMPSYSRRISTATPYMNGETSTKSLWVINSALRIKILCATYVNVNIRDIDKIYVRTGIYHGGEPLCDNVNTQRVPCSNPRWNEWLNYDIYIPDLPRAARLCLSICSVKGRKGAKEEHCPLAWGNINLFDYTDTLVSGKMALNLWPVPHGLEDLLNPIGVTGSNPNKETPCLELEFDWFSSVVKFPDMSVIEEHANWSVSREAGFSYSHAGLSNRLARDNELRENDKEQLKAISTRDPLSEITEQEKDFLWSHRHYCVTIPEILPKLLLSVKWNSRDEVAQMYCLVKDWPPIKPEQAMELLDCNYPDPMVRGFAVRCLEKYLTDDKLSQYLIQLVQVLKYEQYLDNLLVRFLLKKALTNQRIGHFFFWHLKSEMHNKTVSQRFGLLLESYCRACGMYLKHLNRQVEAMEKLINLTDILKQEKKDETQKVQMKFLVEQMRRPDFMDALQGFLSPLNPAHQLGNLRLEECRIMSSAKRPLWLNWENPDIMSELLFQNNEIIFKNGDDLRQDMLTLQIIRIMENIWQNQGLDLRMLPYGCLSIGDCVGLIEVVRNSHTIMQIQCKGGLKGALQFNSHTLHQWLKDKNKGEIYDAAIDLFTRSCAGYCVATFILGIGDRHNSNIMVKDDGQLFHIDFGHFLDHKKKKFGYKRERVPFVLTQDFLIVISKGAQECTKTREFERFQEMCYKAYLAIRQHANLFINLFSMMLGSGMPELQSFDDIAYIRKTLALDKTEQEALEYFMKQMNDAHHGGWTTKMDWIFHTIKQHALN
Sequence of UniProt Q06418 (whole entry, looked up): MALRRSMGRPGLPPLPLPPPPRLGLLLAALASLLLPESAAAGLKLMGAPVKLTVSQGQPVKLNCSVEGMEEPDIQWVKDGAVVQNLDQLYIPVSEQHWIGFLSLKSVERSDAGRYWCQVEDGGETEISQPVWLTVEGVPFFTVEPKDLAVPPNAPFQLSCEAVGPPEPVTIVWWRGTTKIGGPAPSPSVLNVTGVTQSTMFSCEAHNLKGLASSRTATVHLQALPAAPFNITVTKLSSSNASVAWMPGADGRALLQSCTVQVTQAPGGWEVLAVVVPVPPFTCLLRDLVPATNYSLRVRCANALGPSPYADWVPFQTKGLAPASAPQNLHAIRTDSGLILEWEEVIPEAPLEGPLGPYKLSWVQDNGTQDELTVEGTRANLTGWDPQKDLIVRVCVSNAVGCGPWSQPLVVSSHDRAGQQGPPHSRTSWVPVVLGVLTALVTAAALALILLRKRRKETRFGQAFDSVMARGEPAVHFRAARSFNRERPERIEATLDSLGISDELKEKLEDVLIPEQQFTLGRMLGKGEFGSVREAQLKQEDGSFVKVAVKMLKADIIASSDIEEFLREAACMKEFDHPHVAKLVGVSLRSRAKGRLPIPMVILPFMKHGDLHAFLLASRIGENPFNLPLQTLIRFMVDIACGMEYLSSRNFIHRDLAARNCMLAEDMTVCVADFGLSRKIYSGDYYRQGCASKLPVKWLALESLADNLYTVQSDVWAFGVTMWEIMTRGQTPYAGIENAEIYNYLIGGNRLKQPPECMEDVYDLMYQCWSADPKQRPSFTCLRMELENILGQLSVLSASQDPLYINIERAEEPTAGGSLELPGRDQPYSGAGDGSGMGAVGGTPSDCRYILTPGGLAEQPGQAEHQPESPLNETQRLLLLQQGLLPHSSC
Sequence of UniProt P51617 (whole entry, looked up): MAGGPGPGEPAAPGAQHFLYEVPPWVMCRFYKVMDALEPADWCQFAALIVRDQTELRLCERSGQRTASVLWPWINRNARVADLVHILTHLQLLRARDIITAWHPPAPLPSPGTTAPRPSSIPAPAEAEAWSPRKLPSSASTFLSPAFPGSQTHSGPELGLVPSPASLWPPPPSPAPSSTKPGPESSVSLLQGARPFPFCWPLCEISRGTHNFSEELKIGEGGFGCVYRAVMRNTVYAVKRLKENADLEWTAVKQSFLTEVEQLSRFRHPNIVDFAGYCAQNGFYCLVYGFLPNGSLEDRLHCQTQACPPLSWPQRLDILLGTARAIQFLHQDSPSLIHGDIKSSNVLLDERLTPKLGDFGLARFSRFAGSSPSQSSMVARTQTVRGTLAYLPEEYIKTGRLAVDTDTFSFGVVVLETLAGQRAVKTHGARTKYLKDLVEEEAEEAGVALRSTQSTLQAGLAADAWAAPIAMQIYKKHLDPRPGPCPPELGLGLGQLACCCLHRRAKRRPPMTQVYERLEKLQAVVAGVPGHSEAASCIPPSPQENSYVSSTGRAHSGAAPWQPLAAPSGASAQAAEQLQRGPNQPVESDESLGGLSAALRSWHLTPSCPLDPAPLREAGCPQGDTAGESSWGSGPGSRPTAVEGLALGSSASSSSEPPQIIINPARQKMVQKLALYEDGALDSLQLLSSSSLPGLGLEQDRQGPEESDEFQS
Sequence of UniProt Q13188 (whole entry, looked up): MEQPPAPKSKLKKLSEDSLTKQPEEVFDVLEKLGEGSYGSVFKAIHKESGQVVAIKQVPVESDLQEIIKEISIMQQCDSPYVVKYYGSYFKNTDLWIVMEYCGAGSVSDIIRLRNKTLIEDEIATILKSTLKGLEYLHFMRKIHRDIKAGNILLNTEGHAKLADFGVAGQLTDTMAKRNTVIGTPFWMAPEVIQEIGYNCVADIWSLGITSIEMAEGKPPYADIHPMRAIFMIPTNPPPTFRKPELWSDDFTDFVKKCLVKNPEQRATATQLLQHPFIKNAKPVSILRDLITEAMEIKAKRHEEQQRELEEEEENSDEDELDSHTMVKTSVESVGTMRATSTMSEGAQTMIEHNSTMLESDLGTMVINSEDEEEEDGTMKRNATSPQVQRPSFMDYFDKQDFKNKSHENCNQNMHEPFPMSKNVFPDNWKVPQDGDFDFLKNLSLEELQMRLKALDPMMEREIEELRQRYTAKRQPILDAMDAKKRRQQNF
Sequence of UniProt Q16832 (whole entry, looked up): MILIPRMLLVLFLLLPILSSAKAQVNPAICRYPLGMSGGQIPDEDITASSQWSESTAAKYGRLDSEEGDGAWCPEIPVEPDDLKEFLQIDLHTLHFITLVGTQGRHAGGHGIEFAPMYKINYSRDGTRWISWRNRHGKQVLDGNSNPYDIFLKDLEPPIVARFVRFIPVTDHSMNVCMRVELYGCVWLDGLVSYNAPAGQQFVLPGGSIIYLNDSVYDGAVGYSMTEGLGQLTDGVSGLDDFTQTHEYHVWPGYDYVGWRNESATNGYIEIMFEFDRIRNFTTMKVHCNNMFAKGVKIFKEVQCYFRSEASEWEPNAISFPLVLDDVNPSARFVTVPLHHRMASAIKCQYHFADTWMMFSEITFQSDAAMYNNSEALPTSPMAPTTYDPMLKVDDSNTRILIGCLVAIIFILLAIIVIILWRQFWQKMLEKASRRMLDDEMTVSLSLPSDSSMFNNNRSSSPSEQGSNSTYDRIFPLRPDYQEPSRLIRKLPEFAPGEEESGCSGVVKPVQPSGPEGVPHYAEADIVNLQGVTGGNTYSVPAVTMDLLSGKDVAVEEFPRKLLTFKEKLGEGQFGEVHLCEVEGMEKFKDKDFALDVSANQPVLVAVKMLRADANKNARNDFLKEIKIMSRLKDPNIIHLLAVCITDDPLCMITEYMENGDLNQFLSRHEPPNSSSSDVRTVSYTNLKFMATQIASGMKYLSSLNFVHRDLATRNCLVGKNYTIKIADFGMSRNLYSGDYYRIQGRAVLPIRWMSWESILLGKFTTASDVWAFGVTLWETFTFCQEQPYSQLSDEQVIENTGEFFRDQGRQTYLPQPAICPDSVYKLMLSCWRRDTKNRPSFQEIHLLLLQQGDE
Sequence of UniProt P27448 (whole entry, looked up): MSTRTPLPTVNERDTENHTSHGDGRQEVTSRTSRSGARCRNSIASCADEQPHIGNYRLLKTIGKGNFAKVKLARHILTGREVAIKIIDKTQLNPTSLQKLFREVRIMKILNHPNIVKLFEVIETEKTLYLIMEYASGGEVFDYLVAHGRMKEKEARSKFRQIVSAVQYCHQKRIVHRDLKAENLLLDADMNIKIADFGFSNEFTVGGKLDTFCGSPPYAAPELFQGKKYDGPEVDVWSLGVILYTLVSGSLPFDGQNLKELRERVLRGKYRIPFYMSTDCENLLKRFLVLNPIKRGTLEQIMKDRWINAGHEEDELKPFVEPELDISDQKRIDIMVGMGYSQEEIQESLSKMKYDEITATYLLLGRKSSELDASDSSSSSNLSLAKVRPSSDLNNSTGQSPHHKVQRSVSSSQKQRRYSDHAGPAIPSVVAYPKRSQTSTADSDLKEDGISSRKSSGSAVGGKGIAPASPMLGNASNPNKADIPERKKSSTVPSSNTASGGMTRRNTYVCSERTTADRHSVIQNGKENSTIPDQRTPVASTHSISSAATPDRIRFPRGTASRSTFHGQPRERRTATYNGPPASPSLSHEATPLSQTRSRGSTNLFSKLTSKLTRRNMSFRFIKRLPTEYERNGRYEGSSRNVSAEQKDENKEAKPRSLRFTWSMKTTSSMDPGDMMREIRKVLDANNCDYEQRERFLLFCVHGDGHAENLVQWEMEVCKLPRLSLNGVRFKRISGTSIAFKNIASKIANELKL

Sample 1 — observed: kinase activity
SMILES: CNc1ncc2cc(-c3cc(OC)cc(OC)c3Cl)c(=O)n(CCc3ccc(NC(=O)C(C#N)=CC(C)(C)N4CCOCC4)cc3)c2n1
target	concentration	inhibition [%]
IRAK1 (Homo sapiens, UniProt P51617)	0.1 µM	1
PLK3 (Homo sapiens, UniProt Q9H4B4)	1 µM	1
TAOK2 (Homo sapiens, UniProt Q9UL54)	1 µM	23
ROCK2 (Homo sapiens, UniProt O75116)	0.1 µM	-9
PAK5 (Homo sapiens, UniProt Q9P286)	1 µM	4
CDC42BPB (Homo sapiens, UniProt Q9Y5S2)	0.1 µM	-1
STK3 (Homo sapiens, UniProt Q13188)	0.1 µM	1
TYRO3 (Homo sapiens, UniProt Q06418)	0.1 µM	-1

Sample 2 — Compound: O=C(Nc1ccccc1)Nc1cccc(Oc2ccc3nccn3n2)c1; observed: binding; concentration: 1 µM
target	method	remaining binding [%]
CSNK1E (Homo sapiens, UniProt P49674)	competition with immobilised ligand	100
PIK3CA (Homo sapiens, UniProt P42336, H1047Y)		98
DDR2 (Homo sapiens, UniProt Q16832)	competition with immobilised ligand	99
EPHA1 (Homo sapiens, UniProt P21709)	competition with immobilised ligand	86
MARK3 (Homo sapiens, UniProt P27448)		100
MAST1 (Homo sapiens, UniProt Q9Y2H9)		100
Cyclin-dependent kinase 4, with cyclin D3 (CDK4, Homo sapiens, UniProt P11802)		100
PRKG1 (Homo sapiens, UniProt Q13976)		96

Single results of other studies
SMILES	target or system	test system	setting	measurement	value
COCCOCCOC(=O)[C@H](CCC(=O)C=[N+]=[N-])NC(=O)[C@H](Cc1c[nH]c2ccccc12)NC(C)=O	P493B lymphoma cells	P493B cells in human plasma	concentration not given, tumour cell fraction of partition	DON concentration	2.89 nmol/g
Cn1cc(-c2cccc(CN3CCC4(CC3)COc3c4ccc4c3CN([C@H]3CCC(=O)NC3=O)C4=O)c2)cn1		rat, plasma	intravenous, 1.02 mg/kg	clearance	20.4 mL/min/kg
CC(=O)N[C@@H](Cc1c[nH]c2ccccc12)C(=O)N[C@@H](CCC(=O)C=[N+]=[N-])C(=O)OC(CF)CF	P493B lymphoma cells	P493B cells in human plasma	concentration not given, tumour cell fraction of partition	DON concentration	2.06 nmol/g
CC(=O)N[C@@H](Cc1c[nH]c2ccccc12)C(=O)N[C@@H](CCC(=O)C=[N+]=[N-])C(=O)OC(C)C		mouse, EL4 tumour-bearing, EL4 tumour	subcutaneous, dose not given	FGAR level	667 nmol/g

A few entries again (sample 2):
target	method	remaining binding [%]
DDR2 (Homo sapiens, UniProt Q16832)	competition with immobilised ligand	99
EPHA1 (Homo sapiens, UniProt P21709)	competition with immobilised ligand	86
MARK3 (Homo sapiens, UniProt P27448)		100
